# Measured values collected from several papers.
# Compare with care: the assays were run in different laboratories. Values joined by “and” are separate records of one study, mostly repeats; a detail may differ. ± gives the spread as reported.
# UCHL1: Ubiquitin carboxyl-terminal hydrolase isozyme L1 (UCHL1, Homo sapiens, UniProt P09936)
# Chain of UniProt P09936 (whole entry, looked up): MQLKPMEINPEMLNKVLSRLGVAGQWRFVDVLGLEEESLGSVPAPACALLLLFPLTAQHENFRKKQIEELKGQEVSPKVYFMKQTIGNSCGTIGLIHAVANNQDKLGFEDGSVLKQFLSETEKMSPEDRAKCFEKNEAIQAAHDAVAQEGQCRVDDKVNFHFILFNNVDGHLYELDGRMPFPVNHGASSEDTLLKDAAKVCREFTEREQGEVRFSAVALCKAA
SMILES,target or system,assay,system,conditions,scale,quantity,result
CCc1cc2ncc(CN3CCN(c4ccc(C(=O)NC)nc4)CC3)cc2[nH]c1=O,,,"male rat, blood","oral, 50 mg/kg/day, 4 weeks",baseline: vehicle control,white blood cell count ratio,0.62
Cc1cccc(CNC(=O)c2cn(CCNC(=O)c3ccccc3Sc3c([N+](=O)[O-])ncn3C)c3cc4c(cc3c2=O)OCO4)n1,,,"human, whole blood","1 µM, 1.5 h",,remaining compound,89.6%
Cc1c(-c2ccc(N3CCc4cccc(C(=O)Nc5nc6ccccc6s5)c4C3)nc2C(=O)O)cnn1CC12CC3(C)CC(C)(C1)CC(OCCNCC[C@H](O)CO)(C3)C2,,,anaesthetized male beagle dog,"iv infusion, 0.3 mg/kg/min, 15 min",,plasma concentration,133 ng/mL and 57.3 ng/mL
CC(C)NCC(O)COc1cccc2ccccc12 (centres unmarked),,,"male Hartley guinea pigs, anaesthetized","intravenous, 3 mg/kg group, baseline before infusion",,mean blood pressure,36 ± 0.3 mmHg
CC(C)(C(=O)N1CCOc2c(C#N)cncc2C1)C(F)F,,measured: Presyncope,human,"oral, 20 mg twice daily, 14 days, multiple ascending dose",,subjects with adverse event,0%
Cn1cc(Nc2nccc(-c3ccc4c(c3)CN(C3COC3)CC[C@H]4NC(=O)c3cn(C(C)(C)C)nn3)n2)cn1,,,"human, whole blood","150 mg twice daily, day 14",baseline: pre-dose baseline,CD8+ T cell count change,-7.02%
FC(F)(F)c1ccc(CNc2ccc(Cc3c[nH]c4ncc(Cl)cc34)cn2)cn1,,measured: Nausea,patients with advanced solid tumours,"oral, dose not given, grade 3 and 4, possibly related to drug",,adverse event incidence,6%
N#CC(=Cc1cccc(O)c1)C(=O)Nc1ccccc1C(F)(F)F,UCHL1,"covalent, intact protein LC-MS",,12.5 µM,,labelling,9.56%
C=CC(=O)NC1CCN(c2ncc3ncnc(Nc4ccc(Oc5ccc6c(c5)ncn6C)c(C)c4)c3n2)CC1,,,tiny-TIM gastrointestinal model,"240 mg, fasted state",,maximum bioaccessibility,25.5 ± 2.9 % recovery
CNCc1ccc(-c2[nH]c3cc(F)cc4c3c2CCNC4=O)cc1,,,human patients,"oral, 40 mg once daily, grade 500 or higher",,incidence of any adverse event,100%
COc1cc2[nH]c(C)c(-c3ccc(OC)c(F)c3F)c(=O)c2cc1Cl,,,PAMPA,pH 7.4,,Papp,275 ×10⁻⁶ cm/s
COc1cccc(OC)c1-c1cc(C(=O)NC2(C(=O)O)C3CC4CC(C3)CC2C4)nn1-c1ccc(C(=O)N(C)CCCN(C)CCCN(C)C(=O)CN2CCN(CC(=O)[O-])CCN(CC(=O)[O-])CCN(CC(=O)[O-])CC2)cc1C(C)C.[177Lu+3] (centres unmarked),,,"SCID mouse, HT-29 xenograft","iv, 4 h",,spleen uptake,0.06 ± 0.03 % ID
CN1CCc2c(sc3c2c(=O)n(-c2ccccc2)c2nnc(SCc4ccccc4)n32)C1,Trypanosoma cruzi,"reporter translation, Renilla luciferase mRNA translation",cell-free extract,40 µM,baseline: DMSO,inhibition,1.6%
C[C@@H](Nc1cc(F)cc(F)c1)c1cc(C(=O)N(C)C)cc2c(=O)cc(N3CCOCC3)oc12,,measured: M1 metabolite,human,"oral, 240 mg, single dose day 1, 2:5 BID regimen",,AUC(0-12 h),3370 ng·h/mL
COc1ncc(-c2nc3c(n2C(C)C)[C@H](c2ccc(Cl)cc2)N(c2cc(Cl)cn(C)c2=O)C3=O)c(OC)n1,,LC-MS/MS,"human, plasma","oral, 200 mg, cycle 2 day 1, high-dose arm",,Cmax,1310 ng/mL
CC[C@H](C)[C@H](NC(=O)CN)C(=O)N[C@@H](C)C(=O)N[C@@H](CC(=O)O)C(=O)N[C@@H](C)C(=O)N[C@H](C(=O)N[C@@H](CCCCN)C(=O)N[C@@H](C)C(=O)N[C@H](C(=O)N[C@@H](C)C(=O)N[C@@H](CCCCN)C(=O)N[C@@H](C)C(=O)N[C@@H](CC(C)C)C(=O)NCC(N)=O)[C@@H](C)CC)[C@@H](C)CC,,circular dichroism at 222 nm,10 mM SDS,"100 µM, pH 4.0",,mean residue ellipticity,-805 deg cm2/dmol
CCCCC1=NC2(CCCC2)C(=O)N1Cc1ccc(-c2ccccc2S(=O)(=O)Nc2noc(C)c2C)c(COCC)c1,,,"healthy adult volunteers, plasma","oral, 100 mg, single dose, fed, crushed tablet",,AUC(0-inf),20000 ng·h/mL
CC(C)c1nc(N(C)S(C)(=O)=O)nc(-c2ccc(F)cc2)c1/C=C/[C@@H](O)C[C@@H](O)CC(=O)O,,,"Wistar albino rat, both sexes, plasma","oral, 20 mg/kg, 48 h",,plasma concentration,60.8 ng/mL
CCc1cc(C(=O)NC)c2nccc(N3CCc4c(cc(Cn5ccnc5)cc4-c4cn(C)nc4C(F)(F)F)C3=O)c2c1,,,Sprague Dawley rat,"oral, 50 mg/kg once daily, 7 days",baseline: vehicle,change in HCT,1.97%
CC(Cl)C(=O)N1c2ccccc2NC(=O)C1(C)C (centres unmarked),UCHL1,"covalent, intact protein LC-MS",,12.5 µM,,labelling,9.79%
CNC(=O)c1ccc(-c2cnc3ncc(Cc4ccc5ncccc5c4)n3n2)cc1F,,"CTCAE v4.0, any causality",human gastric cancer patients,"oral, 600 mg twice daily, expansion cohort at RP2D",,upper abdominal pain incidence (all grades),11%
CSc1ccc(CN2CCCC(CNC(=O)c3ccc(F)cc3)C2)cc1 (centres unmarked),Trypanosoma cruzi,"reporter translation, Renilla luciferase mRNA translation",cell-free extract,40 µM,baseline: DMSO,inhibition,-6.5%
CCN1/C(=C/C(C)=O)Sc2ccc(F)cc21,,,cynomolgus monkey,"oral, 100 mg/kg, 0.5 h post-dose",,diastolic blood pressure,78 ± 4 mmHg
C[C@@H]1O[C@@H](O[C@H]2[C@H](Oc3cc(O)c4c(c3)O[C@H](c3ccc(O)cc3)CC4=O)O[C@H](CO)[C@@H](O)[C@@H]2O)[C@H](O)[C@H](O)[C@H]1O,,,PBS receiver,"50 mg/mL, 240 min, pH 6.8",,Papp,0.767 ± 0.6 ×10⁻⁶ cm/s
Cc1cc(Nc2cc3ncccc3c(N[C@@H]3C[C@H]4CC[C@@H](C3)N4CCC#N)n2)n[nH]1,,,healthy human subjects,"oral, 10 mg, 2 weeks, single ascending dose",,papular rash incidence,0%
CNc1ccc(-c2nc3ccc(O)cc3s2)cc1 [carbon-11 labelled],,ex vivo biodistribution,"B6SJL mouse, normal, lungs","intravenous, 30 min",,SUV,0.607 ± 0.163
O=C(CCCN1CC=C(n2c(=O)[nH]c3ccccc32)CC1)c1ccc(F)cc1,,,"male Hartley guinea pigs, anaesthetized","intravenous, 0.1 mg/kg group, baseline before infusion",,mean blood pressure,40 ± 0.3 mmHg
O=C(Nc1nc2cccc(-c3ccc(CN4CCS(=O)(=O)CC4)cc3)n2n1)C1CC1,,measured: dyspepsia,human rheumatoid arthritis patients,"oral, 150 mg once daily, 4 weeks, regardless of relatedness",,treatment-emergent adverse events,0%
Cc1cc(NC(=O)c2cccc(NC(=O)/C=C/CN(C)C)c2)ccc1Nc1nccc(-c2cccnc2)n1,,,"rat Wistar male, plasma","1 µM, 30 min",,remaining compound,92.7%
COc1cc2nccc(Oc3ccc(NC(=O)c4cc5c(n(-c6ccccc6)c4=O)CCCC5=O)nc3)c2cc1OC,,,relapsed or refractory AML,"oral, all dose levels",,grade ≥3 Leucocytosis patients,10%
C[C@H](CS)C(=O)N1CCC[C@H]1C(=O)O,,,"male Hartley guinea pigs, anaesthetized","intravenous, 30 mg/kg over 10 min, after infusion",,mean blood pressure,22 ± 0.2 mmHg
O=C(O)c1cccnc1Nc1cccc(C(F)(F)F)c1,,,,,,pKa (basic),2.2
OCCOCc1ccc(-c2noc(-c3ccc(OCC[18F])c(C(F)(F)F)c3)n2)cc1,,,"human, extrapolated from Macaca mulatta","115 MBq, single injection",,gallbladder absorbed dose,47.8 mSv
COCc1cc(C(=O)Nc2cc([C@H]3CC[C@@H](OC(=O)NC(C)C)C3)[nH]n2)n(C)n1,,,"OVCAR-3 xenograft, NOD/SCID gamma mice, plasma","oral, 50 twice daily, PK/PD study",,unbound Cmax,1120 nM
Cc1cc(C)c(CNC(=O)c2cc(Cl)c3c(c2C)O[C@@](C)([C@H]2CC[C@H](N(C)C)CC2)O3)c(=O)[nH]1,,,relapsed/refractory NHL patients,"oral, 200 mg once daily, onset after cycle 1 day 1",,grade ≥3 adverse event Pain,4.2%
CN1CCN(c2cccc3c2CCN(C(=O)/C=C/c2c(-n4cnnn4)ccc(Cl)c2F)[C@@H]3C(=O)Nc2ccc(C(=O)O)cc2)C(=O)C1,,,healthy human subjects,"intravenous infusion, 1 mg/h, 5 days, study",,upper respiratory infection subjects,0%
COc1cc2[nH]c(C)c(-c3ccccc3CO)c(=O)c2cc1Cl,,,PAMPA,pH 7.4,,Papp,19 ×10⁻⁶ cm/s
Cc1ccc([C@@H]2O[C@H](CO)[C@@H](O)[C@H](O)[C@H]2O)cc1Cc1ccc(-c2ccc(F)cc2)s1,,,Japanese type 2 diabetes patients,"25 mg, day 4, 24 h urine collection",baseline: baseline,urinary sodium excretion change,14.3 mEq
Cc1ccc(C(=O)N(CCCN)C(c2nc3snc(C)c3c(=O)n2Cc2ccccc2)C(C)C)cc1 (centres unmarked),,pneumonia grade ≥3 (CTCAE),human patients,"intravenous, 2 mg/day",,patients with adverse event,17%
C=CCN1CC(=O)N2[C@@H](Cc3ccc(O)cc3F)C(=O)N(Cc3cccc(N4CC(N5CCN(CC)CC5)C4)n3)C[C@@H]2N1C(=O)NCc1ccccc1,,,advanced solid tumour patients,"oral, 100 mg twice daily, any grade, dose-escalation",,treatment-related diarrhoea,0%
Cc1ccc(Sc2ccccc2N2CCNCC2)c(C)c1,,measured: thermal burn,healthy adult men,"oral, 5 mg daily, 12 days",,participants with TEAE,0%
Cc1ccc(O)c(-n2nc3ccccc3n2)c1,,exposure assessment,"human, age 16-21 years",cream,,mean daily dermal uptake,240 ng/kg body weight/day
C[Si](C)(C)O[Si](C)(C)O[Si](C)(C)C,,,,,,"intercept A, log KAW vs 1/T",9.99
OC[C@H]1O[C@@H](c2ccc(F)c(Cc3cc4ccccc4s3)c2)[C@H](O)[C@@H](O)[C@@H]1O,,,"Japanese patients, type 1 diabetes","oral, 100 mg/day, onset day 4",baseline: patients,hypoglycaemia-related adverse event,2%
O=C(O)CCC(=O)O.[2H]C([2H])([2H])Oc1cc(C)c2[nH]ccc2c1CN1CC[C@@H](C2CC2)C[C@H]1c1ccc(C(=O)O)cc1,,,"human, plasma","200 mg once daily, day 10, multiple ascending dose",,CLss/F,3.08 L/h
Cc1cc(-c2nccc3c2ccn3CC(=O)Nc2ccc(-c3cnccn3)cn2)ccn1,,,human,"15 mg once daily, multiple ascending dose",,subjects with blurred vision,0%
COc1cc2nc(c1)CNCc1cc(OC)cc(n1)CNC2,,potentiometry,,,,sum of log protonation constants,15
CCOc1c([C@H](C)n2nc(C)c3c(N)ncnc32)cc(Cl)c(F)c1[C@@H]1CNC(=O)C1,,,"patients, monotherapy","oral, 10 mg once daily, cycle 1 day 15",,Tmax median,1 h
Cc1cc(-c2nnc(N)nc2-c2ccc(F)cc2)cc(Cl)n1,,measured: Rash,"IO-naive mCRPC patients, male","oral, dose not given, treatment-related, grade 2",,patients with immune-mediated AE,0%
Cc1ncc2c(c1O)COC2c1ccc(Cl)cc1 (centres unmarked),,,,,,pKa (basic),4.2

# Some of these lines once more:
SMILES,target or system,assay,system,conditions,scale,quantity,result
CSc1ccc(CN2CCCC(CNC(=O)c3ccc(F)cc3)C2)cc1 (centres unmarked),Trypanosoma cruzi,"reporter translation, Renilla luciferase mRNA translation",cell-free extract,40 µM,baseline: DMSO,inhibition,-6.5%
COc1cc2[nH]c(C)c(-c3ccccc3CO)c(=O)c2cc1Cl,,,PAMPA,pH 7.4,,Papp,19 ×10⁻⁶ cm/s
Cc1cc(Nc2cc3ncccc3c(N[C@@H]3C[C@H]4CC[C@@H](C3)N4CCC#N)n2)n[nH]1,,,healthy human subjects,"oral, 10 mg, 2 weeks, single ascending dose",,papular rash incidence,0%
